Measured values pooled from the literature.
Protocols differ between the studies behind these lines. Values joined by “and” are separate records of one study, mostly repeats; a detail may differ. Numbers after ± are the reported error.

CCN1CCN(Cc2ccc(Nc3ncc(F)c(-c4cc(F)c5nc6n(c5c4)[C@H](C)CCC6)n3)nc2)CC1: “Leukopenia incidence, grade ≥3” 4.2% (advanced solid tumour patients; dose not given, Phase Ia monotherapy).
The hemolysis of CC(C)C[C@H](NC(=O)[C@H](C)NC(=O)[C@@H](NC(=O)[C@H](CCCNC(=N)N)NC(=O)[C@H](CC(C)C)NC(=O)[C@H](Cc1c[nH]c2ccccc12)NC(=O)[C@@H]1CCCN1C(=O)[C@@H](N)CCCCN)C(C)C)C(=O)N[C@@H](CS)C(=O)N1CCC[C@H]1C(=O)NCC(=O)O is reported as 0.096% and 1.01% and 0.78% (sheep red blood cells; 4 µM, 1 h, 37 °C).
For CCc1ccc(CC/C=C/c2ccc3c(c2)C(=O)CC3)cc1, the Basophil percentage was 0.4% (Sprague-Dawley rat, male; oral, 30 mg/kg/day, 14 days).
For COc1nnc2ccc(N3CCC(c4ccc(OCCN5CCN(C)C(=O)[C@H]5C)cc4)CC3)nn12, “patients with adverse event” read 38.2% (refers to: fatigue; patients with solid tumours or lymphoma; oral, dose not given, all grades, treatment-emergent).
For O=C(Nc1ccccc1)C1CCN(C(=O)Oc2cccnc2)CC1, “adverse event Headache” read 23.1% (healthy women; oral, 100 mg, 9 days).
CO[C@H]1C[C@@H]2CC[C@@H](C)[C@@](O)(O2)C(=O)C(=O)N2CCCC[C@H]2C(=O)O[C@H]([C@H](C)C[C@@H]2CC[C@@H](OC(=O)NCCOCCOCCOCCOCCOCCOCCOCCOCCC(=O)N3CCc4cc(Cn5nc(-c6ccc7oc(N)nc7c6)c6c(N)ncnc65)ccc4C3)[C@H](OC)C2)C[C@@H](O)[C@H](C)/C=C(\C)[C@@H](O)[C@@H](OC)C(=O)[C@H](C)C[C@H](C)/C=C/C=C/C=C/1C: “dose-reducing adverse events” 25% (phase 1 dose escalation, refers to: neutropenia; advanced solid tumour patients; intravenous, 16 mg weekly, any grade).
The sodium/potassium ratio of COc1cccc(Oc2ccccc2NC(=O)CNC(=O)c2cccc3ccccc23)c1 is reported as 19 and 17 (esterase-deficient SCID mice, male; oral, 100 mg/kg/day, 14 days, toxicity study).
C[C@]12CC[C@@H]3c4ccc(O)cc4CC[C@H]3[C@@H]1CCC2=O — result for “dose fraction in permeate”: 14.2% (ultrafiltration; cow milk whey; 20 nM nominal in whole milk).
For C[C@@H](NC(=O)N1C(=O)[C@H](Cc2ccnc(N)c2)[C@H]1C(=O)O)C1CCCCC1, “incidence of decreased hemoglobin” read 0% (healthy adult Chinese volunteers; continuous intravenous infusion, 1.5 mg/kg/h, 5-day infusion, CTCAE 5.0 grading).
COc1cc2c(Oc3ccc4[nH]c(C)cc4c3F)ccnc2cc1OCC1(N)CC1 — result for “hand-foot syndrome incidence”: 50% (paediatric refractory sarcoma patients; 10 mg).
O=C(O)CCCOc1ccc(F)cc1-c1cc(-c2ccccc2C(F)(F)F)n(-c2ccccc2)n1 has an MCV of 54.3 fL and 54.2 fL and 54 fL and 54.1 fL and 55.4 fL (female Crl:CD(SD) rats; intravenous, 25 µg/kg, 14 d).
C[C@]1(CO)Cc2ncn(-c3ccc(C#N)c(Cl)c3)c2C(=O)O1 — result for “drug-related Headache incidence”: 2.2% (healthy humans; concentration not given, multiple dose part total).
For Oc1ccc(CSCc2ccc(O)cc2)cc1, the body weight was 34.7 ± 3.67 g (ICR mice male; oral, 1500 mg/kg, day 8, acute toxicity).
